Results collected from several papers.
Compare with care: the assays were run in different laboratories. “And” joins repeats or separate records; there may be more than shown. ± gives the spread as reported.
CASP7: Caspase-7 (CASP7, Homo sapiens, UniProt P55210)
Sequence of UniProt P55210 (whole entry, looked up): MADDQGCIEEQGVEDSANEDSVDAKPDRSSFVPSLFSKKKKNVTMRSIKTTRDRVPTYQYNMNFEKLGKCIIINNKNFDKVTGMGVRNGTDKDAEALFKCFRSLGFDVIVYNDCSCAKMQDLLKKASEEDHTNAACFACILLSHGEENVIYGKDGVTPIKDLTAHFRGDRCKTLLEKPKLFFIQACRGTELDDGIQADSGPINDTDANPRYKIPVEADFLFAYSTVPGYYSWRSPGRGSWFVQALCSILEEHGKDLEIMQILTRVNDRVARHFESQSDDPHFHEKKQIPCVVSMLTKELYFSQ
T1: G-quadruplex DNA (Homo sapiens); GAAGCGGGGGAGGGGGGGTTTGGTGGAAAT
Sequence of UniProt Q13148 (whole entry, looked up): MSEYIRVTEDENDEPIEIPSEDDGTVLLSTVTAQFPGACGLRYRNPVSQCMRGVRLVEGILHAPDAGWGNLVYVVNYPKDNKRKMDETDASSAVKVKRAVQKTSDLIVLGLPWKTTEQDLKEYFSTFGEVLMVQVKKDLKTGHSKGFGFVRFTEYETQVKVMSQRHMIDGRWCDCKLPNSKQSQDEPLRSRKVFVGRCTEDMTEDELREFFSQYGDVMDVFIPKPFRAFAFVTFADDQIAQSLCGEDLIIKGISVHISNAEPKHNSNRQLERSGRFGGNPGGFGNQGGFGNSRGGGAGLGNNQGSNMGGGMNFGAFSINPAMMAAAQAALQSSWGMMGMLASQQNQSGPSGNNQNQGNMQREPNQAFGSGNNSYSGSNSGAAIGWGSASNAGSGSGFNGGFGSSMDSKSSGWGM
Sequence of UniProt P34972 (whole entry, looked up): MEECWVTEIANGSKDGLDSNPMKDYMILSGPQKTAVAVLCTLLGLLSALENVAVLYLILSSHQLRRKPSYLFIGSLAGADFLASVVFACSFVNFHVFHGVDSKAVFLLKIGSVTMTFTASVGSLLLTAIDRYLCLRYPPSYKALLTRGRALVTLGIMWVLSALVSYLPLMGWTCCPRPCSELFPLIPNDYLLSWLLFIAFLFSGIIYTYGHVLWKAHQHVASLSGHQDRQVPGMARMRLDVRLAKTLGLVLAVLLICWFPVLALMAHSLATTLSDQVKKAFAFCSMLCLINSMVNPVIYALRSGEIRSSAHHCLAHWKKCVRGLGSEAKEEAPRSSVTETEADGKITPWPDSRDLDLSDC
Sequence of UniProt Q9HB29 (whole entry, looked up): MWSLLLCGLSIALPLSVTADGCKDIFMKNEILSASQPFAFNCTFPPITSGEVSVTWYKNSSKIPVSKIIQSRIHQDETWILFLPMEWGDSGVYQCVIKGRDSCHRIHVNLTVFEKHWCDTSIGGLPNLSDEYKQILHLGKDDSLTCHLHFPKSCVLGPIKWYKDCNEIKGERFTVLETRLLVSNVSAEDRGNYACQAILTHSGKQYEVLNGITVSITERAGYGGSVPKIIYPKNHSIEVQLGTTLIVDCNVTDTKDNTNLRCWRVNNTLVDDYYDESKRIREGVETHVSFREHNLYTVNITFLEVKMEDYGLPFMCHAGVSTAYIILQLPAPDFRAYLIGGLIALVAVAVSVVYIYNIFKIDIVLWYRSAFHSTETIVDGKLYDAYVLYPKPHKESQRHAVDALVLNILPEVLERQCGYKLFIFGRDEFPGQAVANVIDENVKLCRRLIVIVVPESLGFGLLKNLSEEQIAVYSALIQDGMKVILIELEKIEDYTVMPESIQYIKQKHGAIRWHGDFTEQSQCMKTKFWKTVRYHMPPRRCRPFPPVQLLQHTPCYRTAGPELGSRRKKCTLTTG
Sequence of UniProt P17706 (whole entry, unmodified, looked up): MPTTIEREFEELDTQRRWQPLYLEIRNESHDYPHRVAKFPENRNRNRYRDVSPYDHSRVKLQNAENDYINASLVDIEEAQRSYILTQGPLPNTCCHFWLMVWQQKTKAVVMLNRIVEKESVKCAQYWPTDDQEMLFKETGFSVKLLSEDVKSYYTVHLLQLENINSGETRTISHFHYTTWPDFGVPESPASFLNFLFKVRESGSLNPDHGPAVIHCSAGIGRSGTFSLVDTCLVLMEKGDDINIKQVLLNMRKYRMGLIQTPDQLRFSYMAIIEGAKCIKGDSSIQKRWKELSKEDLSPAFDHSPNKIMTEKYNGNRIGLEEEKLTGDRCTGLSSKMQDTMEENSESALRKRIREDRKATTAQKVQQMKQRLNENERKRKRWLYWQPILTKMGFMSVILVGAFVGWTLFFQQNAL
Sequence of UniProt P50990 (whole entry, looked up): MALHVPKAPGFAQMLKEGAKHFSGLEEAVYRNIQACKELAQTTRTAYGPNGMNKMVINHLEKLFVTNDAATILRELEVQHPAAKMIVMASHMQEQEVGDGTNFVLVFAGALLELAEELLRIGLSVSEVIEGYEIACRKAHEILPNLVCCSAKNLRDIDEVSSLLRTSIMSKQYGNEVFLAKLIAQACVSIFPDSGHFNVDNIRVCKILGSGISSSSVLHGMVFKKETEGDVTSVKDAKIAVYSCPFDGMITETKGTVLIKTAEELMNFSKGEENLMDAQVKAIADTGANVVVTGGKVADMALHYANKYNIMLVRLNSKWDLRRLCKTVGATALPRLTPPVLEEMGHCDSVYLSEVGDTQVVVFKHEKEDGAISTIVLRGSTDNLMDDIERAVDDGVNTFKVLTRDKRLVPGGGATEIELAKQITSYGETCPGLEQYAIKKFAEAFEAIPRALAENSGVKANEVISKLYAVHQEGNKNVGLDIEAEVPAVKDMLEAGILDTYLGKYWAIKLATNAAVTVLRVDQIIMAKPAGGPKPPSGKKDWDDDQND
Sequence of UniProt P02716 (whole entry, unmodified, looked up): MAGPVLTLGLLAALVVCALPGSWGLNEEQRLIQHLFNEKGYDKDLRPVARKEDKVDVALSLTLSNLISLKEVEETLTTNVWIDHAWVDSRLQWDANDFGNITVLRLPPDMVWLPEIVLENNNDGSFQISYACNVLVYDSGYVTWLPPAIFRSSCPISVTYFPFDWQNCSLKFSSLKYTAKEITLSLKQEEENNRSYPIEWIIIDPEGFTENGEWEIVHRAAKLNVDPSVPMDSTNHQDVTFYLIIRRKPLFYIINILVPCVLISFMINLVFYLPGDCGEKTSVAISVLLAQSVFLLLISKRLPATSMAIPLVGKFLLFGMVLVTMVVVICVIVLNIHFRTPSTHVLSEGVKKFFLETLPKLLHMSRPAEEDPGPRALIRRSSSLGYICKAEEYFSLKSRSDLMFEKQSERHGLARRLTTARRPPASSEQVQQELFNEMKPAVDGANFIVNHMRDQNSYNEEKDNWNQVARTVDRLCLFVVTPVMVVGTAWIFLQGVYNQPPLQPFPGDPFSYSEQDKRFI
Sequence of UniProt P04756 (whole entry, unmodified, looked up): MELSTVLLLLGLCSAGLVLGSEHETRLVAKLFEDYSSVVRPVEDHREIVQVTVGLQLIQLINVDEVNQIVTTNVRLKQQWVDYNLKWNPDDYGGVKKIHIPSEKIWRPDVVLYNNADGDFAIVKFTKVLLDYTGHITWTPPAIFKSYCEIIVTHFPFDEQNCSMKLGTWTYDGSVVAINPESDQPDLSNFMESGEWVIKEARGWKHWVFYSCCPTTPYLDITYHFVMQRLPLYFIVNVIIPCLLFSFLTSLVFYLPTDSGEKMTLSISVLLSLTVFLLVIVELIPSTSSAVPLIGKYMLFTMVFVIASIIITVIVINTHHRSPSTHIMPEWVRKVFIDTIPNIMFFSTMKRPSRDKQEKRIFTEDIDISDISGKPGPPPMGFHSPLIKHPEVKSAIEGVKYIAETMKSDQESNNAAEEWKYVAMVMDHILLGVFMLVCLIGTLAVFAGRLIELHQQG
Sequence of UniProt P00921 (whole entry, looked up): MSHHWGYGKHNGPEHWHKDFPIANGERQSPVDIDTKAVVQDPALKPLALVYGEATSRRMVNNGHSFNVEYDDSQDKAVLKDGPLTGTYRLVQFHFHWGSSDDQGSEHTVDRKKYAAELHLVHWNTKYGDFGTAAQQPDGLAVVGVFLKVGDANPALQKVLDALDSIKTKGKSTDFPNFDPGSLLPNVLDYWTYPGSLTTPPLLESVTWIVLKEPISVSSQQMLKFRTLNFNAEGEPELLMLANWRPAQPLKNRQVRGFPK
Sequence of UniProt P19491 (whole entry, looked up): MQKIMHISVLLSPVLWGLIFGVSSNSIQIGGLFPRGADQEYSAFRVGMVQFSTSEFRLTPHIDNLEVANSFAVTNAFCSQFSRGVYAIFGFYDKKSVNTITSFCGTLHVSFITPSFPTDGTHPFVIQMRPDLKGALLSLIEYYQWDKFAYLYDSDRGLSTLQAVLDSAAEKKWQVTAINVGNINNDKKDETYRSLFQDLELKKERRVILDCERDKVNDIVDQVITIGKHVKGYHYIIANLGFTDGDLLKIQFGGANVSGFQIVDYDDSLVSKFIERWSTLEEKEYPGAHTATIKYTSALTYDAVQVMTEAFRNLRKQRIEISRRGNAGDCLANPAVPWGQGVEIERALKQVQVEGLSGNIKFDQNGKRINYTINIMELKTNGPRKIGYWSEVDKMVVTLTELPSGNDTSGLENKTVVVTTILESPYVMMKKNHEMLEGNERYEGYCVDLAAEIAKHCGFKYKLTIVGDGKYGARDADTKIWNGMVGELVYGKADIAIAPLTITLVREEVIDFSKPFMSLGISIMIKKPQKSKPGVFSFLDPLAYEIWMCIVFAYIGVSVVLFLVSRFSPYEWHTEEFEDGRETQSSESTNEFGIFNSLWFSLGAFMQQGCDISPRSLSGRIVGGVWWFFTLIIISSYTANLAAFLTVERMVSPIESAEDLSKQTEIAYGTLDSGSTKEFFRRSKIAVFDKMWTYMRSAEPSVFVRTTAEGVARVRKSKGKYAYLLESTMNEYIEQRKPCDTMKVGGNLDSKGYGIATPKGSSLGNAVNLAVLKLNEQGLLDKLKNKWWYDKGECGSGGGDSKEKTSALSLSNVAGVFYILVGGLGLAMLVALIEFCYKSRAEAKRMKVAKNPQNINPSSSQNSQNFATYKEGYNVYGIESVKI

CCOC(=O)[C@@](CC)(CCCSCCOCCOCCN)NC(=O)c1ccc(C2CC2)c(Cc2ccc(F)cc2)n1 has a Ki ratio of 39 (CNR2 (Homo sapiens, UniProt P34972); radioligand binding; relative to: CB1 over CB2 (human)).
NS(=O)(=O)c1ccc(CN2C(=O)c3ccc(N4CCOCC4)cc3C2=O)cc1 gave an emission maximum of 542 nm (CA2 (Bos taurus, UniProt P00921); binding).
For CC[C@H](NC(=O)[C@@H](NC(=O)[C@@H](NC(C)=O)C(C)C)C(C)(C)C)C(=O)N[C@@H](CC(=O)O)C(=O)COC(=O)c1c(C)cccc1C, the kinact/KI was 25300 M⁻¹ s⁻¹ (CASP7; enzyme activity, inhibitor).
CCCCCCCCCCCCC/C=C/C=O — result for “isoTOP-ABPP competition ratio”: 1 (CCT8 (Homo sapiens, UniProt P50990); competitive isoTOP-ABPP; Ramos soluble proteome; 100 µM, 60 min, with: iodoacetamide probe; relative to: DMSO over compound-treated, higher = stronger cysteine blockade).
Cn1c(=O)n(C2CCC(=O)NC2=O)c2ccc(C3CCN(CC(=O)Nc4cccc(CS(=O)(=O)N5CC[C@H](Nc6cccc(-c7sc(C(=O)O)c(OCC(=O)O)c7Cl)c6)CC5(C)C)c4)CC3)cc21 (some centres unmarked): “BLI binding response” 0.182 a.u. (PTPN2 (Homo sapiens, UniProt P17706, E41K/R35E/R43E); degrader, bio-layer interferometry; 31.3 nM; higher = more binding).
The binding stoichiometry of CC(C)C[C@H](NC(=O)[C@H](Cc1ccccc1)NC(=O)[C@H](CCCNC(=N)N)NC(=O)[C@H](C)NC(=O)[C@H](Cc1ccccc1)NC(=O)[C@H](Cc1ccccc1)NC(=O)[C@@H]1CCCN1C(=O)[C@H](CC(C)C)NC(=O)[C@H](C)NC(=O)[C@H](CCCCN)NC(=O)CN)C(=O)N[C@@H](CO)C(=O)N[C@H](C(=O)N[C@@H](CO)C(=O)O)C(C)C is reported as 1.12 ± 0.01 (uncharacterized protein (Microcystis aeruginosa MRC, UniProt B2G3C9); isothermal titration calorimetry; concentration not given, pH 8.0, 25 °C).
O=C1c2sc(-c3ccc(N4CCC(CO)CC4)nc3F)nc2CCN1c1cccnc1 gave a specific binding of 8.34 nM and 12.9 nM (TAR DNA-binding protein 43, aggregated (TARDBP, Homo sapiens, UniProt Q13148); radioligand binding; human, FTLD-TDP type B extract; with: radioligand 102.04 nM).
C[N+](C)(C)CCOC(N)=O has an affinity ratio of 2 (Chrnd/Chrna1/Chrne (Mus musculus, UniProt P02716+P04756+P20782, G173S/S470W); ligand binding, agonist, single-channel kinetics; chain S; relative to: wild type over mutant).
CC(C)[C@@H]1NC(=O)[C@H](Cc2ccccc2)NC(=O)CSC[C@@H](C(N)=O)NC(=O)[C@H](CCC(=O)O)NC(=O)[C@H](CO)NC(=O)[C@H](Cc2c[nH]c3cccc(Cl)c23)NC(=O)[C@H](C2CCCCC2)NC(=O)[C@H](C(C)C)NC(=O)[C@H](Cc2ccc(O)cc2)NC(=O)[C@H](CC(=O)O)NC(=O)[C@H](Cc2c[nH]c3ccccc23)NC(=O)[C@H](Cc2ccc(N)nc2)NC(=O)[C@H](Cc2c[nH]c3ccc(Cl)cc23)NC(=O)[C@H](CCC(=O)O)NC1=O gave a remaining activity of 5.11% (Interleukin-1 receptor-like 2 (IL1RL2, Homo sapiens, UniProt Q9HB29); IL-8 release, antagonist; A-431; 4 µM, 18 h, with: IL-36 10 ng/mL; relative to: untreated).
With CC(=O)N[C@H](C(=O)N[C@@H](CCC(=O)O)C(=O)N[C@@H](CCCCN(C)C)C(=O)N[C@@H](CC(=O)O)C(=O)COC(=O)c1c(C)cccc1C)C(C)C the kinact/KI was 10500 M⁻¹ s⁻¹ (CASP7; enzyme activity, inhibitor).
O=C(O)Cc1cc2c(cc1C(=O)c1cccc(Cl)c1)OCO2 gave a current amplitude of 148 ± 11 pA (Gria2 (Rattus norvegicus, UniProt P19491); glutamate-evoked current, whole-cell patch clamp; HEK-293T; concentration not given, pH 7.4, holding potential -60 mV, with: 10 mM glutamate).
Under “activity vs control”, CC(C)c1ccc(/C=C/C(=O)c2ccc(Br)s2)cc1 is recorded as 7.34% (MAOA (Homo sapiens, UniProt P21397); enzyme activity, inhibitor; 10 µM).
Cc1ccc(-c2c[nH]nc2C(=O)NC2CC2)cc1: “number of kinases hit” 0 (human kinase panel; binding, KINOMEscan; 10000 nM, %Ctrl below 10).
For CN(C)c1ccc(C2=C/C(=C/C=C/c3sc4ccccc4[n+]3C)c3ccccc3O2)cc1, binding read “binds” (T1, G-quadruplex DNA (Homo sapiens); fluorescence turn-on).

For quick reference, copied from above:
CCOC(=O)[C@@](CC)(CCCSCCOCCOCCN)NC(=O)c1ccc(C2CC2)c(Cc2ccc(F)cc2)n1 has a Ki ratio of 39 (CNR2 (Homo sapiens, UniProt P34972); radioligand binding; relative to: CB1 over CB2 (human)).
Cn1c(=O)n(C2CCC(=O)NC2=O)c2ccc(C3CCN(CC(=O)Nc4cccc(CS(=O)(=O)N5CC[C@H](Nc6cccc(-c7sc(C(=O)O)c(OCC(=O)O)c7Cl)c6)CC5(C)C)c4)CC3)cc21 (some centres unmarked): “BLI binding response” 0.182 a.u. (PTPN2 (Homo sapiens, UniProt P17706, E41K/R35E/R43E); degrader, bio-layer interferometry; 31.3 nM; higher = more binding).
